Published values of several laboratories.
A part holds a random share of what one study measured.
UniProt Q9UK32, sequence (whole entry, looked up): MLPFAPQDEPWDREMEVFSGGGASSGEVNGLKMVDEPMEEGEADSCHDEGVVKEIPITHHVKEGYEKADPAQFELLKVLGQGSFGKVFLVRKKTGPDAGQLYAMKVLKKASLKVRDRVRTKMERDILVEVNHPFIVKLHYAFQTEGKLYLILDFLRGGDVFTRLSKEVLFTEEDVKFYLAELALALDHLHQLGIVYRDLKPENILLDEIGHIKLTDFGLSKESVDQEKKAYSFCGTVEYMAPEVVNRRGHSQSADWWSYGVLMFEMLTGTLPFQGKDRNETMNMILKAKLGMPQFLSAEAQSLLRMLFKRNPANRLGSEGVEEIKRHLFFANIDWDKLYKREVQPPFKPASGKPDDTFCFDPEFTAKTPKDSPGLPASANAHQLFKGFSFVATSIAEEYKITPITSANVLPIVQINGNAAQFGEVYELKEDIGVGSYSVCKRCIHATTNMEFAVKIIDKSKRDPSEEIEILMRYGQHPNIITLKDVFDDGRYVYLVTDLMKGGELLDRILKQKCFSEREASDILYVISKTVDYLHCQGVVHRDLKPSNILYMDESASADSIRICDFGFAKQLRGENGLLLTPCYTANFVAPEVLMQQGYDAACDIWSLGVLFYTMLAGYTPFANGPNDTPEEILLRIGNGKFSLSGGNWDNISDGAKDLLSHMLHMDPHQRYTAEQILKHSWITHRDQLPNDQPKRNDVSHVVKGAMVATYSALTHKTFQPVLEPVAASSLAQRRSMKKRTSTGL
UniProt Q16816, sequence (whole entry, looked up): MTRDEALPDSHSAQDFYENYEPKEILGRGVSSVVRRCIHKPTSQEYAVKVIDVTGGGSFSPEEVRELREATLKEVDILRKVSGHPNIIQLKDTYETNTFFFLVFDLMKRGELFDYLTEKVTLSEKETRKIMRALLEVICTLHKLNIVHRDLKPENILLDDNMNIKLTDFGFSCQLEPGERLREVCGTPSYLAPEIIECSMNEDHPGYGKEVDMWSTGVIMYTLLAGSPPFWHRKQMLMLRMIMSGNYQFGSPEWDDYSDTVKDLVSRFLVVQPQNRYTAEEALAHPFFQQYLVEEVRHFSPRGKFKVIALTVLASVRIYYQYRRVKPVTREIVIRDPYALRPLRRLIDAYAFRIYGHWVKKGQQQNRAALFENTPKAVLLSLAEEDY
UniProt O75716, sequence (whole entry, looked up): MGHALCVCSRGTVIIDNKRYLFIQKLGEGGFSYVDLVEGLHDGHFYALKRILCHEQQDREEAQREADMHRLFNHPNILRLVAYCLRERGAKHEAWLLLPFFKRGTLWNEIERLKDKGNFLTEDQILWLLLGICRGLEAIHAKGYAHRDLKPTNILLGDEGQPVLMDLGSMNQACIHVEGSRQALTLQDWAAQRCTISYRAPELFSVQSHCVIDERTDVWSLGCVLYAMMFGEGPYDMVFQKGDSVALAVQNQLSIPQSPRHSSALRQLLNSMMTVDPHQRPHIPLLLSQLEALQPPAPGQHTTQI
UniProt Q16644, sequence (whole entry, looked up): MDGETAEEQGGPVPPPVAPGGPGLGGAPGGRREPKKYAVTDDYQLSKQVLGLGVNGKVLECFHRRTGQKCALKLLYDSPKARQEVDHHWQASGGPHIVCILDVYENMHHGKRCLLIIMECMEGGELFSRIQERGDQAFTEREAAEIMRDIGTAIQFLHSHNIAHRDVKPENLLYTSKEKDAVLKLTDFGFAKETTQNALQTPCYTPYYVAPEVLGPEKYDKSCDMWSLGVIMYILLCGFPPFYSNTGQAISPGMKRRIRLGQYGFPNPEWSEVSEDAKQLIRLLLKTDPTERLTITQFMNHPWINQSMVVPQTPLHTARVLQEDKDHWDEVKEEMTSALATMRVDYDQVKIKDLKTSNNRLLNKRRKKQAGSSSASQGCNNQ
UniProt P62344, sequence (whole entry, looked up): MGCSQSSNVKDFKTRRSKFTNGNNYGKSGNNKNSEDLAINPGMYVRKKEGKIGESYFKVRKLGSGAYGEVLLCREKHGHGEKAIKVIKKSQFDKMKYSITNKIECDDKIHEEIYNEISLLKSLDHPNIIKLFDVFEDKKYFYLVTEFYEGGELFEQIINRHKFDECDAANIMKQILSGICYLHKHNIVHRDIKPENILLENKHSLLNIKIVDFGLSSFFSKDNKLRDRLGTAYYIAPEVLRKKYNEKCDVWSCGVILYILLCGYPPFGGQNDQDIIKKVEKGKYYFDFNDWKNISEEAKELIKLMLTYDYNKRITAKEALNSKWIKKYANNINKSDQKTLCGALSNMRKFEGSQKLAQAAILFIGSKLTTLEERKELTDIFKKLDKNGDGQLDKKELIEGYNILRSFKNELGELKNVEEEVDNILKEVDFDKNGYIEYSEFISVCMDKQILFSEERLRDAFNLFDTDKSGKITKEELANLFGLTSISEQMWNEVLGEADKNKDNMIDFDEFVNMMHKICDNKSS
UniProt P06493, sequence (whole entry, looked up): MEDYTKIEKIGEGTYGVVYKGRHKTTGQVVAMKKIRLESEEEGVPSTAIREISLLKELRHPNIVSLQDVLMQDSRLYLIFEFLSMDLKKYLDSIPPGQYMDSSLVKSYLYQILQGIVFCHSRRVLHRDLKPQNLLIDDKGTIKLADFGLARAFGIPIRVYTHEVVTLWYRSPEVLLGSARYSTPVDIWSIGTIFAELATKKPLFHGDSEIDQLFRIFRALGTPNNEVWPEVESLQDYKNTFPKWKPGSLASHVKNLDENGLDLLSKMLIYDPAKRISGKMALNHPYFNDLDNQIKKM
UniProt Q9H2X6, sequence (whole entry, looked up): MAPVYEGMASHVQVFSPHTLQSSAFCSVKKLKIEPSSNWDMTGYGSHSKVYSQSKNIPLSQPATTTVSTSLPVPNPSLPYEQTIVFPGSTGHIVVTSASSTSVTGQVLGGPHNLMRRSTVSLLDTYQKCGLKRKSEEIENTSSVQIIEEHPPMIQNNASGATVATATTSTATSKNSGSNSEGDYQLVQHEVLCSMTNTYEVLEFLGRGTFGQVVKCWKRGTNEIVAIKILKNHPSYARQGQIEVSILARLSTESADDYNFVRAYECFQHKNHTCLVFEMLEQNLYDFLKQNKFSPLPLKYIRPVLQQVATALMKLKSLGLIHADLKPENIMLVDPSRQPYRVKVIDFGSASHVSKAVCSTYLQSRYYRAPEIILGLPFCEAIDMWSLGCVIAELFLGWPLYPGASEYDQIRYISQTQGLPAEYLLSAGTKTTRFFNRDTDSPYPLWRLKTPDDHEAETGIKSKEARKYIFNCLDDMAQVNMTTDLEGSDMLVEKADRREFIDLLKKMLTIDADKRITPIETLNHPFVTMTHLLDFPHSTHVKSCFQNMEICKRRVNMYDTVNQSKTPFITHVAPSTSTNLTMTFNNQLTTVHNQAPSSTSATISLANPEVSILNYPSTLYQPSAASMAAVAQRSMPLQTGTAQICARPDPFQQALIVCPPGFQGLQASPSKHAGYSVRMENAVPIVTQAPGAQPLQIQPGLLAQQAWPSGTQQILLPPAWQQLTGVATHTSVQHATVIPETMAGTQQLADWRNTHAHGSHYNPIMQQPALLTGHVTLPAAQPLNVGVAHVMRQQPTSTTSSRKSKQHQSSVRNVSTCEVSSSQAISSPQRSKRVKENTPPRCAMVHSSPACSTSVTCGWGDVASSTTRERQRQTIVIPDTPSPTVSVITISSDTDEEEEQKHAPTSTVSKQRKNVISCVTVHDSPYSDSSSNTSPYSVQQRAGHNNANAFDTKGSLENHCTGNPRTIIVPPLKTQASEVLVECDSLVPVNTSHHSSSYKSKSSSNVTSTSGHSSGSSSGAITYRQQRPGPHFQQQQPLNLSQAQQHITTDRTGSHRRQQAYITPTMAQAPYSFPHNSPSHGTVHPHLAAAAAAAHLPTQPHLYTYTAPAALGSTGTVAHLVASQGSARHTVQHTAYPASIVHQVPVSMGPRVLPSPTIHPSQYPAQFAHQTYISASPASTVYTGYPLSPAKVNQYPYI
UniProt P51451, sequence (whole entry, looked up): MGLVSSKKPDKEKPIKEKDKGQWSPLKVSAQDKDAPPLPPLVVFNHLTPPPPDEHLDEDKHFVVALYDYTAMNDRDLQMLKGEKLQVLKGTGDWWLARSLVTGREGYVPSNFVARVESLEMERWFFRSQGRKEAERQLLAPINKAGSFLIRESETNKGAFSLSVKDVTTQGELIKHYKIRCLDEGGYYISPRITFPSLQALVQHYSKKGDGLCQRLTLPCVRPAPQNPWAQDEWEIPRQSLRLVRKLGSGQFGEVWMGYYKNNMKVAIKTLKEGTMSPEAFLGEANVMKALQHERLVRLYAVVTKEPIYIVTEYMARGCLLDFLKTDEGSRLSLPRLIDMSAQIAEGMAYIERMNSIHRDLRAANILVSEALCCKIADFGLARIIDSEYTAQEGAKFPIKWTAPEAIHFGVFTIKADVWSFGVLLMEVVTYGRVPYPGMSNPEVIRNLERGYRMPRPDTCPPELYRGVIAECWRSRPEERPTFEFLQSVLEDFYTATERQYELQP
UniProt Q8NE63, sequence (whole entry, looked up): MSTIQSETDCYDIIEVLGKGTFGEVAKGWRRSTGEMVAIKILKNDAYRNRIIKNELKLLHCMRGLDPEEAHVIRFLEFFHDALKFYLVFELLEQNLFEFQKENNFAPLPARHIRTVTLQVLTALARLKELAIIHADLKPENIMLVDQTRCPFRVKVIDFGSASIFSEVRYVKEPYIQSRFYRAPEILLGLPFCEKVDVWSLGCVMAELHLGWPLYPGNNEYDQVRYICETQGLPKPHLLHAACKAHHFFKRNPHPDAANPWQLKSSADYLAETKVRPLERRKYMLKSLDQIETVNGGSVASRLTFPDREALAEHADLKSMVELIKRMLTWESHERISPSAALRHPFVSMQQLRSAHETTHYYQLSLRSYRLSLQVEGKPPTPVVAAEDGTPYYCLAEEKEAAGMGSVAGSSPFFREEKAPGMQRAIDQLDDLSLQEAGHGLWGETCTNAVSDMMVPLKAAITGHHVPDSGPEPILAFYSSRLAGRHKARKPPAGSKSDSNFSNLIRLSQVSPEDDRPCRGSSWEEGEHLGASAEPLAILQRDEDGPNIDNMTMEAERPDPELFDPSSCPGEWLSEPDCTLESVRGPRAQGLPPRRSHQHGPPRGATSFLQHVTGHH

Block 1 — mode: inhibitor; concentration: 10 µM; relative to: control; measurement: remaining activity
Target: Diamine acetyltransferase 1 (Homo sapiens, UniProt P21673)
Target sequence (P21673 1-171): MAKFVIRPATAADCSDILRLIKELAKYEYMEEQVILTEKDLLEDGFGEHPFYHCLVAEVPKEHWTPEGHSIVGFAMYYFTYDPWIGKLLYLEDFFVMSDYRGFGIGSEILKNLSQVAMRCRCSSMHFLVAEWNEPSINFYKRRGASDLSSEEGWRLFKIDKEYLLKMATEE
SMILES = C[C@H](O)CCO; value = 93.9%
SMILES = CO[C@H]1C[C@H](O[C@H]2CC[C@]3(C)[C@H]4CC[C@]5(C)[C@@H](C6=CC(=O)OC6)CC[C@]5(O)[C@@H]4CC[C@]3(O)C2)O[C@H](C)[C@H]1O[C@@H]1O[C@H](CO)[C@@H](O)[C@H](O)[C@H]1O; value = 95.4%
SMILES = c1ccc2c(c1)sc1ccccc12; value = 93.5%
SMILES = CCCCC/C=C/C/C=C/CCCCCCCC(=O)O[C@H](COC(=O)CCCCCCCCCCCCCCC)COP(=O)([O-])OCC[N+](C)(C)C; value = 85.8%
SMILES = C[C@@H]1C(=O)O[C@H]2[C@H](O)[C@]34[C@@H]5OC(=O)[C@]3(O[C@@H]3OC(=O)[C@H](O)[C@@]34[C@H](C(C)(C)C)[C@H]5O)[C@@]12O; value = 75.2%
SMILES = C=CCc1ccc(OC)cc1; value = 99.3%

Block 2 — read-out: enzyme activity; mode: inhibitor; concentration: 0.5 µM; relative to: control; measurement: remaining activity
Compound: CCn1cnc2c(Nc3cccc(Cl)c3)nc(N[C@H]3CCCC[C@H]3N)nc21
target = MAP kinase-activated protein kinase 3 (MAPKAPK3, Homo sapiens, UniProt Q16644); value = 91.3%
target = Homeodomain-interacting protein kinase 2 (HIPK2, Homo sapiens, UniProt Q9H2X6); value = 94%
target = Ribosomal protein S6 kinase alpha-6 (RPS6KA6, Homo sapiens, UniProt Q9UK32); value = 75.7%
target = Tyrosine-protein kinase Blk (BLK, Homo sapiens, UniProt P51451); value = 87.1%
target = Homeodomain-interacting protein kinase 4 (HIPK4, Homo sapiens, UniProt Q8NE63); value = 88.4%
target = Ephrin type-B receptor 4 (EPHB4, Homo sapiens, UniProt P54760); value = 70.8%
target = Ephrin type-B receptor 1 (EPHB1, Homo sapiens, UniProt P54762); value = 56.6%
target = Cyclin-dependent kinase 1, with cyclin B (CDK1, Homo sapiens, UniProt P06493); value = 16.4%
target = Serine/threonine-protein kinase 16 (STK16, Homo sapiens, UniProt O75716); value = 101%
target = Mitogen-activated protein kinase kinase kinase kinase 4 (MAP4K4, Homo sapiens, UniProt O95819); value = 72.5%
target = Phosphorylase b kinase gamma catalytic chain, skeletal muscle/heart isoform (PHKG1, Homo sapiens, UniProt Q16816); value = 62.8%

Block 3 — cell line: mouse MPNST tumor cells; method: high-content immunofluorescence imaging; measured: nuclear SOX9; concentration: 10 µM; time: 12 h; setting: mean of 2 replicates; relative to: DMSO control; direction: higher = more nuclear SOX9; measurement: nuclear SOX9 intensity
SMILES = C=CCN1C[C@H](C(=O)N(CCCN(C)C)C(=O)NCC)C[C@@H]2c3cccc4[nH]cc(c34)C[C@H]21; value = 109 % of DMSO
SMILES = CCNCC(O)c1cccc(O)c1 (stereo not shown); value = 92.9 % of DMSO
SMILES = CCN[C@@H](C)Cc1cccc(C(F)(F)F)c1; value = 100 % of DMSO
SMILES = CC(C)c1ccccc1C1SCC(=O)Nc2ccc(Cl)cc21 (stereo not shown); value = 103 % of DMSO

Mixed results
Structure (SMILES) = CO[C@@H](C)c1c(Nc2ccc([C@H](N(C)C(=O)C3CCS(=O)(=O)CC3)C(F)(F)F)cc2)cnc2cc(Cl)nn12; target = Calcium-dependent protein kinase 1 (CDPK1, Plasmodium falciparum, UniProt P62344); assay = cell-free assay, competition with immobilised ligand; conditions = 1 µM; measurement = remaining binding; value = 97%

Repeated from above (block 2):
target = Ephrin type-B receptor 1 (EPHB1, Homo sapiens, UniProt P54762); value = 56.6%
target = Cyclin-dependent kinase 1, with cyclin B (CDK1, Homo sapiens, UniProt P06493); value = 16.4%
target = Serine/threonine-protein kinase 16 (STK16, Homo sapiens, UniProt O75716); value = 101%
